Assay results collected from several papers.
Parts stem from different laboratories: compare values within a part only.

Block 1 — technique: RNA Bind-n-Seq; form: RNA; medium: in vitro; tested at: not given; reference: input RNA pool; reading: higher = stronger binding
Target: RING finger protein unkempt homolog, zinc fingers 1-6, GST-SBP tag (UNK, Homo sapiens, UniProt Q9C0B0, residues 30-357)
Sequence of UniProt Q9C0B0 (30-357, looked up): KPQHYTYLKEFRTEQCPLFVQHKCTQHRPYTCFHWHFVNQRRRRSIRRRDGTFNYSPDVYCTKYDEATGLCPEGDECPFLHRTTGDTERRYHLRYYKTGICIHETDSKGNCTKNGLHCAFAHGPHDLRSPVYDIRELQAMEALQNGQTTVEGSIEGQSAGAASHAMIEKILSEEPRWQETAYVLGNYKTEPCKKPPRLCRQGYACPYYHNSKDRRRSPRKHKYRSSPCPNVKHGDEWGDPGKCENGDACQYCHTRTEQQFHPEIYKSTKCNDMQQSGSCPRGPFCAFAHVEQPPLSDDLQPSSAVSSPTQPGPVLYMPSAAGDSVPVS
Setting: RNA with constant flanks, human-mouse chimeric sites, ends assumed
For `GGGAGUUCUACAGUCCGACGAUCUGGCGCCUGCGCUCCCCACUCGUGUUUUUAAGUGUAUUUUUAUAAGAUACAUGUAUUUGUAAUAGAUCUUUUGUUACAUAAUGCUGAAAUGCUACUGGAGAUUAUGAAAAAUGUUUCAAUCAACAGAGGAUUGAGCAUCA`, the bound/input enrichment was 0.395 ratio.
With `GGGAGUUCUACAGUCCGACGAUCGAGUCGAGCAAACUUGAAACAAUUCGUUUUACAAAAACCUCAGUGUUCACUUGCUUGUGGCAAUAGCUGGGGUUUUAUAGGUUCUGGAAGGAGAACUGACGAUGAUGCUGCCGCUGCUGCCAACAGAGGAUUGAGCAUCA` the bound/input enrichment was 0.293 ratio.
For `GGGAGUUCUACAGUCCGACGAUCGAUCAUGAACCACCAUCAGAAAUGAAGAUGAGAUUACCCAGACGAGCCAAAACAGCUGCGCUACAGAAAAAGUAAACUAACCUUGCACCAAUUUCUCAUGAAGAUACAAGUUAAGAGAGCCAACAGAGGAUUGAGCAUCA`, the bound/input enrichment was 0.395 ratio.
With `GGGAGUUCUACAGUCCGACGAUCGCUCCUCCCCGCUCUGCAGCCUGGGGACACUGGGCUGGGACCAGAAUCCAGCUUUCUUUUAAAACUCUCAGUGUAACUUCUUUUUCUGACAUUUCAUUUUUUUUAAAAGAAAAAAACUUUCAACAGAGGAUUGAGCAUCA` the bound/input enrichment was 0.24 ratio.

Block 2 — technique: protein binding microarray; form: double-stranded DNA, one strand shown; medium: in vitro; tested at: not given; reference: not given; reading: higher = stronger binding
Target: Histone acetyltransferase KAT6A, both winged helices, GST fusion (KAT6A, Homo sapiens, UniProt Q92794, residues 1-181)
Setting: 8-mer, flanks averaged, mean of 2 arrays, mostly near background
Construct (chain): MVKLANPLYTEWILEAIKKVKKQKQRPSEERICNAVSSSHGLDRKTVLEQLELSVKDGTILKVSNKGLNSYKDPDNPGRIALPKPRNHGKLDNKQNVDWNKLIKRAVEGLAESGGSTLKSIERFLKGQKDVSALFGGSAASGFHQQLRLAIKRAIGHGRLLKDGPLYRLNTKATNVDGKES
For `CCGTCAAC`, the E-score was 0.189.
The E-score of `ACTCGCTC` is reported as 0.0398.
`CACGTGTC` gave an E-score of -0.144.
For `CTCCTATA`, the E-score was -0.197.
`GACCCGGC` has an E-score of 0.23.

Block 3 — technique: protein-binding microarray; form: double-stranded DNA, one strand shown; medium: in vitro; tested at: 0.8 µM; setting: whole 60-bp probe, no competitor; reading: higher = stronger binding
Target: Centromere-binding protein 1, full length, N-terminal tag (CBF1, Saccharomyces cerevisiae, UniProt P17106, residues 1-351)
Sequence of UniProt P17106 (whole entry, looked up): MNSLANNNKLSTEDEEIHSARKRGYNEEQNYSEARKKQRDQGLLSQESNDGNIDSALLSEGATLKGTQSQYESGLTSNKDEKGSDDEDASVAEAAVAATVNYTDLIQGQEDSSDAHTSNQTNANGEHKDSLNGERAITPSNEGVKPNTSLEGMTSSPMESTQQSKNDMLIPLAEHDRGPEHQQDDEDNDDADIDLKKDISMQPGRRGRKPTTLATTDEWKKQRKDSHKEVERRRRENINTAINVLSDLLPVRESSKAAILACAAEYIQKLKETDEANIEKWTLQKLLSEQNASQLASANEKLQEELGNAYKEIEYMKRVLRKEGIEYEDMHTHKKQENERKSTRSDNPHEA
For `CTAGGCATCACGTTCGTCGTGACATATGACTTGTTCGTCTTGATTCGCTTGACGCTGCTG`, the fluorescence intensity was 2720 a.u.
The fluorescence intensity of `CCTAACTACTATAGTCAGGTGGAATAGCTTCGTACAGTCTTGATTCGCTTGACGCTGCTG` is reported as 731 a.u.
With `GAACAAGCTAGAGATCACAAGCTAAAAAAGAACTAGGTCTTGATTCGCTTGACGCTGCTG` the fluorescence intensity was 693 a.u.
`GAAAGCTGTTAAAGCTGCGTCACGAGTAATGAGTAGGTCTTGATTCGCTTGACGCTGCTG` has a fluorescence intensity of 1290 a.u.
With `TGTACGAAGCTATCACCGCTGATTATAGTAGTTAGGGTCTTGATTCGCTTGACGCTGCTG` the fluorescence intensity was 544 a.u.

Mixed results
The fold induction of `PhoQ, residues 284 288 289 292 302 303 SCCLKL` is reported as 6.65 (PhoP, residues 12 14 15 18 19 TPWLV (Escherichia coli, UniProt P23836); Sort-seq, refers to: YFP reporter; E. coli; PhoQ-PhoP variant library, added: 10 µM Mg2+; reference: high Mg2+ state, higher = stronger signaling).
